Measurements collected from several papers.
Each line is one published result; not all experiments were run side by side. Numbers after ± are the reported error.

| SMILES | assay | test system | setting | Cmax |
| --- | --- | --- | --- | --- |
| N#CC1(c2ccc3c(N)ncnn23)OC(COP(=O)(O)O)C(O)C1O (centres unmarked) | LC-MS/MS | CD-1 mouse, liver | oral, 100 mg/kg of remdesivir | 61600 nmol/kg |
| CCNC(=O)c1noc(-c2cc(C(C)C)c(O)cc2O)c1NC(=O)CCN1CCOCC1 |  | CD1 nude mouse, A-431 xenograft, lung | intraperitoneal, 80 mg/kg single | 4890 ng/mL |
| COc1ccc2ccc3c(c2c1)C=[N+]1C2CCCCC2[N+]2=Cc4ccc(OCCN5CCCCC5)cc4[O][Au-]21[O]3.F[P-](F)(F)(F)(F)F (centres unmarked) | ICP-MS, measured: gold | mouse, serum | intraperitoneal, 5 mg/kg | 1770 ng/mL |
| NC(=O)c1ccc(C(=O)NOCc2ccc(Sc3cccc(Cl)c3)c(C(F)(F)F)c2)cc1 |  | male ICR mouse, plasma | intraperitoneal, 30 mg/kg | 14300 ng/mL |
| O=C(N[C@@H](Cc1coc2ccccc12)B(O)O)[C@@H]1C[C@H]2CC[C@@H]1O2 |  | mouse, U266B1 xenograft, plasma | oral, 30 mg/kg, total, single dose | 11.7 µM |
| CC(C)N(P(c1ccccc1)c1ccccc1)P(c1ccccc1)c1ccccc1.Cc1ccc(C(C)C)cc1.F[B-](F)(F)F.[Cl][Ru+] | ICP-MS, measured: ruthenium | BALB/c nude mouse, serum | intraperitoneal, 5 mg/kg | 53.9 ng/mL |
| Cc1ccc(NC(=O)N2CCCN3CCC(c4ccc(C#CC5(O)CCCCC5)cc4)C3C2)cc1 (centres unmarked) |  | CD-1 mouse, brain | oral, 10 mg/kg, single dose | 87 ng/g |
| O=C(Nc1nccs1)C(c1cc(F)ccc1O)N1Cc2ccccc2C1=O (centres unmarked) |  | mouse FVB/NRj, female, plasma | oral, 20 mg/kg | 719 ± 512 ng/mL |
| NS(=O)(=O)NCC(F)(F)c1ccccc1F |  | mouse, brain | oral, 5 mg/kg | 7540 ng/g |
| N=C(N)NCCC[C@@H]1NC(=O)[C@H](Cc2c[nH]c3ccccc23)NC(=O)[C@@H](CC2CCCCC2)NC(=O)[C@@H]2CCCN2C(=O)[C@@H](NC(=O)CCc2ccccc2)CCCNC1=O |  | C57BL/6J mouse, plasma | intraperitoneal, 1 mg/kg, single dose | 5950 ng/mL |
| Cc1ccc(C(C)C)cc1.O=C(N=P(c1ccccc1)(c1ccccc1)c1ccccc1)c1ccccn1.[Cl-].[Cl-].[Ru+2] | measured: ruthenium | NOD scid mouse, plasma | intraperitoneal, 5 mg/kg | 2620 ng/mL |
| COc1ccc(NC(=O)N2CCCCN3[C@H](CN(C)C)[C@H](c4ccc(C#Cc5ccccc5)cc4)[C@@H]3C2)cc1 |  | CD-1 mouse, plasma | oral, 10 mg/kg, single dose | 406 ng/mL |
| O=S(=O)(N[C@@H]1CCC[C@H](N2c3ccccc3Oc3ccccc32)[C@H]1O)c1ccc(OC(F)(F)F)cc1 |  | mouse, plasma | oral, 100 mg/kg | ~14 µM |
| O=c1c(-c2cnn(-c3ccc(Cl)cc3)c2)c(C(F)(F)F)oc2c(O)c(O)ccc12 |  | mouse | intraperitoneal, 100 mg/kg, vehicle DMSO | ~35 µM |
